Results collected from several papers.
Lines come from different studies, so protocols differ. ± gives the spread as reported.
Ache: Acetylcholinesterase (Ache, Mus musculus, UniProt P21836)
OPRK1: Kappa-type opioid receptor (OPRK1, Homo sapiens, UniProt P41145)

Chains of the proteins cited; added tags and fusions are not shown. Residues count along the entry.
UniProt P21836, whole entry, looked up: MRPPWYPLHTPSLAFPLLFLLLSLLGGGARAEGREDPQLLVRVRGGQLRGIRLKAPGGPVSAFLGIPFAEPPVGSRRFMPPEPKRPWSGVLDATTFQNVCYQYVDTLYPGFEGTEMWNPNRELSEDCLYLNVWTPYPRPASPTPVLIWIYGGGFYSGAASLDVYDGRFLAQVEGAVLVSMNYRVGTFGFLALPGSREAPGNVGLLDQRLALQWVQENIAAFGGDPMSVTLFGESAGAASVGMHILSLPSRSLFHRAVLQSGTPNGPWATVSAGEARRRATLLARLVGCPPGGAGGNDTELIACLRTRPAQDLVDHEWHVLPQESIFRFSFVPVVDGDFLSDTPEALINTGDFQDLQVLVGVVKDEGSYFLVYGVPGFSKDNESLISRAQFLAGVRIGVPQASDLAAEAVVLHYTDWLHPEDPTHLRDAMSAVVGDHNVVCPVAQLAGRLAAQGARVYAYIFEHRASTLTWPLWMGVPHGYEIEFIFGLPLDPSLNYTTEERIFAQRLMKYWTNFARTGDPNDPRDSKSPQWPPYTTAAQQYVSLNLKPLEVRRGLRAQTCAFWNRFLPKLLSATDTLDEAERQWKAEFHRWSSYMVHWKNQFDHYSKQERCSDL
UniProt P41145, whole entry: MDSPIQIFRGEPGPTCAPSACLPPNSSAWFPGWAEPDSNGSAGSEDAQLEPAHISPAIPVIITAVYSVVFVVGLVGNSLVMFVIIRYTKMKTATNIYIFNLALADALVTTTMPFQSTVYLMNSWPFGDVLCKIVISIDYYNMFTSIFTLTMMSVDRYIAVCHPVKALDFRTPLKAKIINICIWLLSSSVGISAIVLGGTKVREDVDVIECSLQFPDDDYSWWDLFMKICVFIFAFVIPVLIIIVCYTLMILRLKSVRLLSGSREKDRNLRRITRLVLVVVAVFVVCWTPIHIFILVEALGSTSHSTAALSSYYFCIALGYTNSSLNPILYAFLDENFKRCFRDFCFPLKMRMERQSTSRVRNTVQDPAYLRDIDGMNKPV
UniProt Q9GZZ6, 25-450 limits assumed: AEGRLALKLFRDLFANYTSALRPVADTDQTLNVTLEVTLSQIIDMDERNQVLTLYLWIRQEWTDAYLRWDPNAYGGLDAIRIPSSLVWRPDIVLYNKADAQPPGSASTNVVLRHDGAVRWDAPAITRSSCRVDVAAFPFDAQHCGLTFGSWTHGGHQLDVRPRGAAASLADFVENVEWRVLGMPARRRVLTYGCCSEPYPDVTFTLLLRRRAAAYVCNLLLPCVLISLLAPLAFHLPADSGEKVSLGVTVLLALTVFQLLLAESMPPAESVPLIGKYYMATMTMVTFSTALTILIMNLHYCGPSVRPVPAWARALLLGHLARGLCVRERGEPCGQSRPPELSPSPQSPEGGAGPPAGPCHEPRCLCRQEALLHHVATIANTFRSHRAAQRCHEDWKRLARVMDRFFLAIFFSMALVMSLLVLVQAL
UniProt Q9UGM1, 26-479 limits assumed: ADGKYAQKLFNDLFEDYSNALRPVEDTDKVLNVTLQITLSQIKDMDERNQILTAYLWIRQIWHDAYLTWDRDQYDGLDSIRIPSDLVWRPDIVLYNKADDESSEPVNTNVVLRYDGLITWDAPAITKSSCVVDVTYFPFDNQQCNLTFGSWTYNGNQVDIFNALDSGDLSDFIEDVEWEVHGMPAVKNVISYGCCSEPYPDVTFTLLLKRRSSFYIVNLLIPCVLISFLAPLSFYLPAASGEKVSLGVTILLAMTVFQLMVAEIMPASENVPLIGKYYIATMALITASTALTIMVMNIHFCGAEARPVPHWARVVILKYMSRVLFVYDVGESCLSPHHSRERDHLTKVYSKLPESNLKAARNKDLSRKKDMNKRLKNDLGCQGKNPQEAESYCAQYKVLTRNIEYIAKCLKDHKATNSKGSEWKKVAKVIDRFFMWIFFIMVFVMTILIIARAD
UniProt O00167, 253-538 limits assumed: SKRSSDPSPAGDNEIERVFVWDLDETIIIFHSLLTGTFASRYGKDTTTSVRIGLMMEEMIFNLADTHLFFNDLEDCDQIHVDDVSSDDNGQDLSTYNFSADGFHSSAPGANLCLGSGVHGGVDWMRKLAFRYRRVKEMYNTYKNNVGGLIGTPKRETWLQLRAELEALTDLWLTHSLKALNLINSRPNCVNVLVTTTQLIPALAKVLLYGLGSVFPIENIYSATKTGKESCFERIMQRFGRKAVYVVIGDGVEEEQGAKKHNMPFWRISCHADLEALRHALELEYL
UniProt Q03311, whole entry, looked up: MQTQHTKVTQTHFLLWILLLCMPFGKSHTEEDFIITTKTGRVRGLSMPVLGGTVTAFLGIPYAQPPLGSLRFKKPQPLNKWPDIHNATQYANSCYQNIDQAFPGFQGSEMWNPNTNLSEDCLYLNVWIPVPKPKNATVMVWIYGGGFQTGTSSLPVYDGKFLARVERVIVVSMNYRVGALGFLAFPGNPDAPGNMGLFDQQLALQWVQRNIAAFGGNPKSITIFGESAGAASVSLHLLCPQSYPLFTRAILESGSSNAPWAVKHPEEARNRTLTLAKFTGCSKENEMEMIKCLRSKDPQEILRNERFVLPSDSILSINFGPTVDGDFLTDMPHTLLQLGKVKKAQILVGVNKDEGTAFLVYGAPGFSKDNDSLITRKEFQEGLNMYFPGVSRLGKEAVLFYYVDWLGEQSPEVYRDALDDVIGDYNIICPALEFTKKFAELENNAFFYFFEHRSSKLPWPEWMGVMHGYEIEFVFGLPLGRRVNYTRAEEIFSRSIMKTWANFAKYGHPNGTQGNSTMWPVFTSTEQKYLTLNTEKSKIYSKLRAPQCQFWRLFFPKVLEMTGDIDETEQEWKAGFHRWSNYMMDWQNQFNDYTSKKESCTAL
UniProt P02768, 25-609 limits assumed: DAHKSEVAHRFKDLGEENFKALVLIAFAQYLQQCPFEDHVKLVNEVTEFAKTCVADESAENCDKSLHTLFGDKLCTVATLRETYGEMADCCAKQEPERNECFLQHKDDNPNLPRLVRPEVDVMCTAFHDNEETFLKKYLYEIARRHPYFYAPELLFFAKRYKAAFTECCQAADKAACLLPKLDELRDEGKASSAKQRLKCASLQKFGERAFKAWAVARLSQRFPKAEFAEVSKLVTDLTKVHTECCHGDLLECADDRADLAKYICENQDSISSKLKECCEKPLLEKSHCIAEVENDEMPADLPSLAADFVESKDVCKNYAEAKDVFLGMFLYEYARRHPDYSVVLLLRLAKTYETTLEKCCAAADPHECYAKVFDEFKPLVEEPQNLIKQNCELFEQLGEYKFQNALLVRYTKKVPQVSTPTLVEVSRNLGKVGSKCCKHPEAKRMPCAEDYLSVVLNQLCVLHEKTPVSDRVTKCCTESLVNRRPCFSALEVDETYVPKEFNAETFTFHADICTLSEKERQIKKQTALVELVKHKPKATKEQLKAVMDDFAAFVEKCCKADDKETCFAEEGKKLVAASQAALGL
UniProt P35372, whole entry: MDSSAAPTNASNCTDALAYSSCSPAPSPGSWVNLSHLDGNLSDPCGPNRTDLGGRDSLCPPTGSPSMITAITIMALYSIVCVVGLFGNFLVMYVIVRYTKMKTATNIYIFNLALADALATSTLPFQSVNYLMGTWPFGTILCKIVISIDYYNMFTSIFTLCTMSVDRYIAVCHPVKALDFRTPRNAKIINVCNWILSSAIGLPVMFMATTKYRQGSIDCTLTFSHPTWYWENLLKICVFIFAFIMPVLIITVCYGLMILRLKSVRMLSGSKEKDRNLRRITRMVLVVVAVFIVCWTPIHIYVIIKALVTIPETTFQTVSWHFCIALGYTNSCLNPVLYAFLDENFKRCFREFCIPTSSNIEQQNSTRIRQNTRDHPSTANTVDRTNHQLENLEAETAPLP
UniProt P22303, 32-614 limits assumed: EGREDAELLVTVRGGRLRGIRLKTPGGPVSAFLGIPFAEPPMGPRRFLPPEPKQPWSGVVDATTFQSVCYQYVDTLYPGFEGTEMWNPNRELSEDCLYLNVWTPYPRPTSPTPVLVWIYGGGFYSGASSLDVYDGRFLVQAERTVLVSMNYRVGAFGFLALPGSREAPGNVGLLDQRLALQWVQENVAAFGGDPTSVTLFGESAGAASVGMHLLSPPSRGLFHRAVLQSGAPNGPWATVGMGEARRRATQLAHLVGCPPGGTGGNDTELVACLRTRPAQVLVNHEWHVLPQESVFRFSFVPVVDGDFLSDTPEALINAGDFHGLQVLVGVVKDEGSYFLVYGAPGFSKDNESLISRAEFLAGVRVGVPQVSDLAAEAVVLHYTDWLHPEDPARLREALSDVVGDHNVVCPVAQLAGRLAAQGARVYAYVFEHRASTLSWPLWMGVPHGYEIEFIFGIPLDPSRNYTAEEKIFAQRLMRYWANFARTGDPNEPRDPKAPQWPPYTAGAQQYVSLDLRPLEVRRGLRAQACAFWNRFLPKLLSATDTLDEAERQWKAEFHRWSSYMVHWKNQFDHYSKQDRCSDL
UniProt Q99720, whole entry: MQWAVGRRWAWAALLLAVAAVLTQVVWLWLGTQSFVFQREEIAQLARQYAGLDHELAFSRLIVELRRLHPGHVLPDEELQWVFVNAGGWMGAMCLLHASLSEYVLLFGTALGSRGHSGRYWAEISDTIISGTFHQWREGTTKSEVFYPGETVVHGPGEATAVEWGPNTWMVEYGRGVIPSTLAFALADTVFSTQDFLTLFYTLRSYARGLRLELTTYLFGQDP

Substance | tested on | assay | test system | conditions | how to read | endpoint | result
CNC(=O)Oc1cccc2c1OC(C)(C)C2 | Ache | – | ES1-/- mice, plasma | subcutaneous, 1.0 mg/kg, 0.5 h, toxicant challenge | – | inhibition | 52.4 ± 4.1%
NC(=O)c1ccc[n+]([C@@H]2O[C@H](COP(=O)([O-])OP(=O)(O)OC[C@H]3O[C@@H](n4cnc5c(N)ncnc54)[C@H](O)[C@@H]3O)[C@@H](O)[C@H]2O)c1 | Inosine-5'-monophosphate dehydrogenase (Clostridium perfringens, UniProt A0A127ELD1) | substrate | – | pH 8.0, 25 °C | – | Km | 370 ± 4 µM
CCOC(=O)/C=C/[C@H](C[C@@H]1CCNC1=O)NC(=O)[C@@H](CC(=O)[C@@H](NC(=O)c1cc(C)on1)C(C)C)Cc1ccc(F)cc1 | Replicase polyprotein 1ab, main protease (rep, Severe acute respiratory syndrome coronavirus 2, UniProt P0DTD1) | inhibitor | SARS-CoV-2 | 40 µM, 48 h | baseline: vehicle | reporter signal reduction | ~20%
CNC(=O)ON=CC(C)(C)SC | Acetylcholinesterase (Cavia porcellus, UniProt D3YE96) | Ellman | – | – | – | IC95 | 509 µM
C[C@@H]1NC(=O)[C@H](CCCNC(=N)N)NC(=O)[C@H](CCCNC(=N)N)NC(=O)[C@H](CCCNC(=N)N)NC(=O)[C@H](CO)NC(=O)[C@@H]2CSSC[C@H](NC(=O)CN)C(=O)N[C@@H](CSSC[C@@H](C(N)=O)NC(=O)[C@H](CO)NC(=O)[C@H](CCCNC(=N)N)NC1=O)C(=O)N[C@@H](CO)C(=O)N[C@@H](Cc1c[nH]cn1)C(=O)N1CCC[C@H]1C(=O)N[C@@H](C)C(=O)N2 | Neuronal acetylcholine receptor; alpha9/alpha10 (Homo sapiens, UniProt Q9GZZ6+Q9UGM1) | ion current, antagonist | Xenopus oocytes | 10 µM, 5 min, added: acetylcholine | baseline: control | remaining response | 1 ± 0.9%
O=[As]c1ccccc1 (centres unmarked) | Protein phosphatase EYA2 (Homo sapiens, UniProt O00167) | phosphatase activity, inhibitor | – | concentration not given, Eya2 ED, added: OMFP substrate | – | activity class | inactive
CCC1C(=O)N(C2CCN(C(C)CC(c3ccccc3)c3ccccc3)CC2)c2ccccc21 (centres unmarked) | OPRK1 | radioligand displacement | – | added: tritiated U-69593 | – | Ki | 4.17 µM
CCOP(=S)(OCC)Oc1ccc([N+](=O)[O-])cc1 | Cholinesterase (Bche, Mus musculus, UniProt Q03311) | – | ES1+/+ mice, plasma | subcutaneous, 12.5 mg/kg, 6.0 h, toxicant challenge | – | inhibition | 71.5 ± 3.9%
NC12CC3CC(CC(C3)C1)C2 | Influenza A virus | viral replication | MDCK, A/Swine/Indiana/24-0218/2010 (H1N2) | – | – | EC50 | ≥ 100 µM
CO[C@]12CC[C@@]3(C[C@@H]1[C@](C)(O)c1ccc(C)s1)[C@H]1Cc4ccc(O)c5c4[C@@]3(CCN1CC1CC1)[C@H]2O5 | OPRK1 | G-protein activation, agonist | – | 10 µM | baseline: U-69593 | stimulation | 81 ± 1%
CN(C)[C@]1(c2ccccc2)CC[C@]2(CC1)OCCc1c3cc(F)ccc3[nH]c12 | OPRK1 | cAMP, agonist | – | human receptor | – | Emax | 98.1 ± 2.2%
[3H]diisopropyl fluorophosphate | Albumin (ALB, Homo sapiens, UniProt P02768) | covalent label | – | 19 µM, 1 h, 37 °C | – | labelled albumin | ~4%
CCC1C(=O)N(C2CCN(Cc3cccc4[nH]ccc34)CC2)c2ccccc21 (centres unmarked) | OPRM1 (Homo sapiens, UniProt P35372) | agonist | cell membranes | – | – | EC50 | 0.0234 ± 0.0056 µM
CCOP(=S)(OCC)Oc1nc(Cl)c(Cl)cc1Cl | Ache | enzyme activity | ES1-/- mice | transdermal, 100 mg/kg, toxicant challenge | baseline: baseline | time to AChE recovery | ≤ 9 days
CC(C)OP(=S)(OC(C)C)SCCNS(=O)(=O)c1ccccc1 | ACHE (Homo sapiens, UniProt P22303) | enzyme activity, inhibitor, fluorescence | – | human liver microsomes with NADPH | – | IC50 | inactive
Cc1cc2c(-c3ccco3)cnc(N[C@@H]3CCN(C)C[C@H]3C(=O)NC3CCCCC3)c2[nH]c1=O | SIGMAR1 (Homo sapiens, UniProt Q99720) | binding, radioligand binding | – | 10 µM | – | inhibition | 22.6%
CCC(=O)c1cnc2c(=O)[nH]c(N)nc2n1 | Ricin, A chain (Ricinus communis, UniProt P02879) | differential scanning fluorimetry | – | 500 µM, pH 7.5, 2 µM protein | – | ΔTm | 2 °C

Some of these lines once more:
Substance | tested on | assay | test system | conditions | how to read | endpoint | result
C[C@@H]1NC(=O)[C@H](CCCNC(=N)N)NC(=O)[C@H](CCCNC(=N)N)NC(=O)[C@H](CCCNC(=N)N)NC(=O)[C@H](CO)NC(=O)[C@@H]2CSSC[C@H](NC(=O)CN)C(=O)N[C@@H](CSSC[C@@H](C(N)=O)NC(=O)[C@H](CO)NC(=O)[C@H](CCCNC(=N)N)NC1=O)C(=O)N[C@@H](CO)C(=O)N[C@@H](Cc1c[nH]cn1)C(=O)N1CCC[C@H]1C(=O)N[C@@H](C)C(=O)N2 | Neuronal acetylcholine receptor; alpha9/alpha10 (Homo sapiens, UniProt Q9GZZ6+Q9UGM1) | ion current, antagonist | Xenopus oocytes | 10 µM, 5 min, added: acetylcholine | baseline: control | remaining response | 1 ± 0.9%
CCOP(=S)(OCC)Oc1ccc([N+](=O)[O-])cc1 | Cholinesterase (Bche, Mus musculus, UniProt Q03311) | – | ES1+/+ mice, plasma | subcutaneous, 12.5 mg/kg, 6.0 h, toxicant challenge | – | inhibition | 71.5 ± 3.9%
